Measured values collected from several papers.
Parts stem from different laboratories: compare values within a part only.

Block 1
Target: PABPC1L2, full length, GST fusion (mouse, UniProt A0ABA7IW68)
Method: RNAcompete
Form: RNA
Sample: in vitro
Concentration: 20 nM
Notes: 7-mer, probes averaged, single round
Relative to: mean of 7-mers
Reading: higher = stronger binding
Target sequence (chain): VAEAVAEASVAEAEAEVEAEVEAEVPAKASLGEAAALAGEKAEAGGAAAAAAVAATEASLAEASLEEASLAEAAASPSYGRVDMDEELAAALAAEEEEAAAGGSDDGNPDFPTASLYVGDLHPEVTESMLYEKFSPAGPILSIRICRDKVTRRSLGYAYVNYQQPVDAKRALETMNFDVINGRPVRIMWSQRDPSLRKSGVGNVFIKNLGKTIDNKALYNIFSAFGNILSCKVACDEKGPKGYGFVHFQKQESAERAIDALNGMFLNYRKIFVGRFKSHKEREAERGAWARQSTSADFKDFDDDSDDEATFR
Strand | 7-mer Z-score
UUAAAGC | 0.222
UAUACGG | -0.0826
GGUUGUC | -0.293
AUCGUUG | -0.199
UAAUAUA | 0.0696
CCCCAGG | -0.394
UUUGCCU | -0.44
AGUAAGA | 0.017
CAGCGCU | -0.249

Block 2
Target: Interferon regulatory factor 5, full length, phosphomimetic (IRF5, Homo sapiens, UniProt Q13568-2, residues 1-514, S451D/S453D/S456D/S462D)
Method: protein-binding microarray
Form: double-stranded DNA, one strand shown
Sample: in vitro
Concentration: 940 nM top
Notes: 60-bp whole probe
Added: salmon DNA 0.4 mg/ml
Relative to: random background probes
Reading: higher = stronger binding
Shared flanks, not repeated: GCCTAGCAC … GTCTTGATTCGCTTGACGCTGCTG
Strand | fitted relative affinity
GACGAACTGGGGTTTCCAGACGTGCTA | -0.207 z-score
GACGGTTTCGACTATCGGGAGGTGCTA | 8.12 z-score
TTAGGATTCGGGTATCGGTTAGTGCTA | 3.42 z-score
GACGCTTCCAGTTTCGAGACGTGCTAG | 4.14 z-score
GACGGTTTCCCTATCCTGACGTGCTAG | 2.09 z-score
TCAGGGCTACCTCTCTTACTGTGCTAG | -0.589 z-score
TTAGGTATCGACACAGGGTTAGTGCTA | 5.37 z-score
TACGATCTCAGTATCGAGACGTGCTAG | 2.03 z-score

Block 3
Target: Sal-like protein 4, full length isoform A (SALL4, Homo sapiens, UniProt Q9UJQ4, residues 1-1053)
Sequence of UniProt Q9UJQ4 (whole entry, looked up): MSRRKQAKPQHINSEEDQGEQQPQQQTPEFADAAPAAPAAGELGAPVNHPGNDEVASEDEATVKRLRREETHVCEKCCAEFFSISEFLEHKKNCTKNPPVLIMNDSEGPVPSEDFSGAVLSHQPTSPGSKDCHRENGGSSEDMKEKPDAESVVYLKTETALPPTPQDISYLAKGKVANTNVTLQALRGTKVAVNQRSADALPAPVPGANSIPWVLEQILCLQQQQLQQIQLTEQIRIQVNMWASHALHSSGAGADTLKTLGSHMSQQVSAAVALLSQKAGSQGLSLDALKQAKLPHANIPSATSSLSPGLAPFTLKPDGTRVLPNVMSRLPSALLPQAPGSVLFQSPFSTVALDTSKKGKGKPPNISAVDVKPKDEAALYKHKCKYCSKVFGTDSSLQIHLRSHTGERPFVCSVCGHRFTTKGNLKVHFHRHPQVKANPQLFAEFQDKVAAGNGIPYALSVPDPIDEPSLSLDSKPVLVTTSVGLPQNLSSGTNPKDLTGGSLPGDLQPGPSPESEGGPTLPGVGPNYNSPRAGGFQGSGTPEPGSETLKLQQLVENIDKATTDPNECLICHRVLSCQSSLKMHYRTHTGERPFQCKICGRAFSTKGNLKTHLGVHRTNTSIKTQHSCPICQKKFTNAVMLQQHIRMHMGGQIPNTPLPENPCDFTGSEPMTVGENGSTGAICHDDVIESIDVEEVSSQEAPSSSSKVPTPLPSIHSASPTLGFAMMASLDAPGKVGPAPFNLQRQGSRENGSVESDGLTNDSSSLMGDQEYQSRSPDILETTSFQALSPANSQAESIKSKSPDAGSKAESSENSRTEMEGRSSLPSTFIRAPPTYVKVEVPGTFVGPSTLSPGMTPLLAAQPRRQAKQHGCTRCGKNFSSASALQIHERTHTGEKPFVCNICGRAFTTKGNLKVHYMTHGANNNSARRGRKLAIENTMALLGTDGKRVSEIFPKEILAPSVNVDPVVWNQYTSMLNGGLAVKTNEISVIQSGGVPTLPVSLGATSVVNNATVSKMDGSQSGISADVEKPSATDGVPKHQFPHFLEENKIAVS
Method: universal PBM
Form: double-stranded DNA, one strand shown
Sample: in vitro
Concentration: 600 nM
Notes: 8-mer, flanks averaged, mean of replicates
Reading: higher = stronger binding
Strand | E-score
AACTCCGG | -0.181
ACATGCGG | -0.161
AACTCTAT | 0.195
ACATGTAC | 0.0553
ACCACGTG | -0.284
GCTAAGCA | -0.141
AAGTCTGT | 0.171
TCCGCGAA | 0.00982
AACAGAAA | 0.281

Further values, each from its own experiment
Substance | target | test | system | setting | scale | endpoint | value
PhoQ, residues 284 288 289 292 302 303 SLSLLA | PhoP, residues 12 14 15 18 19 LHSVQ (Escherichia coli, UniProt P23836) | Sort-seq, refers to: YFP reporter | E. coli | PhoQ-PhoP variant library, added: 10 µM Mg2+ | relative to: high Mg2+ state, higher = stronger signaling | fold induction | 17

A few entries again (block 1):
Strand | 7-mer Z-score
UAAUAUA | 0.0696
CCCCAGG | -0.394
